Assay results collected from several papers.
Each numbered part is a random draw from the data of one study; scales do not carry over between parts. Positions count from the first letter of the parent shown.
UniProt P29317, sequence (whole entry, looked up): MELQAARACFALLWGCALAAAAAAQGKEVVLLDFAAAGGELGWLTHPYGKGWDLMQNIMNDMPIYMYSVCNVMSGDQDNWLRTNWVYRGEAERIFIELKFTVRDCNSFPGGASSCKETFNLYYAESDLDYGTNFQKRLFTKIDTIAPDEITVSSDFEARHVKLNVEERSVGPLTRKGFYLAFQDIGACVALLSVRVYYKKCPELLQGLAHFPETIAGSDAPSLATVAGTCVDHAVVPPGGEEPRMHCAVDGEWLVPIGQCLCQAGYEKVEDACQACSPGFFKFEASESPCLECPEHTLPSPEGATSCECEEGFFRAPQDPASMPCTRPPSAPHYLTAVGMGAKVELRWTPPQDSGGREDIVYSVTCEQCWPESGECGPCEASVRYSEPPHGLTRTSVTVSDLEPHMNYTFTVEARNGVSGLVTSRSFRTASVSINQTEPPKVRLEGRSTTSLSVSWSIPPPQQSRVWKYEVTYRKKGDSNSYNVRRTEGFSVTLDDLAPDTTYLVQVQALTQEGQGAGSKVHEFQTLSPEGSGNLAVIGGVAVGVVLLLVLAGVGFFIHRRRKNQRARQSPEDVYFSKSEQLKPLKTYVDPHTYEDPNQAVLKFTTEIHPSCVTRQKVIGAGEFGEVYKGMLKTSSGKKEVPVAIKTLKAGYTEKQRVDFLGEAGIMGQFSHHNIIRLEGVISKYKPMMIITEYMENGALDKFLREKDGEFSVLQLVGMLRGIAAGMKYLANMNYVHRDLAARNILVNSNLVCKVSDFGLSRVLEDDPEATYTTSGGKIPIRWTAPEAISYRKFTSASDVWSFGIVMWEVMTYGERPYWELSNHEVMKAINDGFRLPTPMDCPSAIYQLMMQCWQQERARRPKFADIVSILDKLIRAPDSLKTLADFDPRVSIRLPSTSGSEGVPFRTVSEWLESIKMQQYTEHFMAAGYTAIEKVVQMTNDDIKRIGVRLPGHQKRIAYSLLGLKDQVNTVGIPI

Sample 1
Target: PABPC1L2, full length, GST fusion (mouse, UniProt A0ABA7IW68)
Method: RNAcompete
Molecule type: RNA
Medium: in vitro
Tested at: 20 nM
Setting: 7-mer, probes averaged, single round
Relative to: mean of 7-mers
Reading: higher = stronger binding
Residues (chain): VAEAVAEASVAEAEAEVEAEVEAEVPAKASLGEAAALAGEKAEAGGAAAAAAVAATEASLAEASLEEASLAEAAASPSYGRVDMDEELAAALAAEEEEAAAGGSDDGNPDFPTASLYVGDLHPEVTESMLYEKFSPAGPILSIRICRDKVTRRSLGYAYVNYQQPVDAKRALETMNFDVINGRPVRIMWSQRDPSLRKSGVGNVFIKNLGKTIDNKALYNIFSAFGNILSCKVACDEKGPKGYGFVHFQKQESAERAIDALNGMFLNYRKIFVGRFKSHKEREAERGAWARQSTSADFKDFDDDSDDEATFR
The 7-mer Z-score of `ACCAUAA` is reported as 0.764.
For `UGCCGAC`, the 7-mer Z-score was -0.0953.
`GCCCCGC` gave a 7-mer Z-score of -0.456.
`CUGACCG` gave a 7-mer Z-score of -0.162.
`UGUCCUU` gave a 7-mer Z-score of -0.284.
`UUACUAC` gave a 7-mer Z-score of -0.313.
The 7-mer Z-score of `AGAUGCG` is reported as -0.155.
`GGACCGA` has a 7-mer Z-score of 0.236.

Sample 2
Target: RING finger protein unkempt homolog, zinc fingers 1-6, GST-SBP tag (UNK, Homo sapiens, UniProt Q9C0B0, residues 30-357)
Method: RNA Bind-n-Seq
Molecule type: RNA
Medium: in vitro
Tested at: not given
Setting: RNA with constant flanks, human and mouse sites, ends assumed
Relative to: input RNA pool
Reading: higher = stronger binding
Shared flanks, not repeated: GGGAGUUCUACAGUCCGACGAUC … CAACAGAGGAUUGAGCAUCA
Residues (chain): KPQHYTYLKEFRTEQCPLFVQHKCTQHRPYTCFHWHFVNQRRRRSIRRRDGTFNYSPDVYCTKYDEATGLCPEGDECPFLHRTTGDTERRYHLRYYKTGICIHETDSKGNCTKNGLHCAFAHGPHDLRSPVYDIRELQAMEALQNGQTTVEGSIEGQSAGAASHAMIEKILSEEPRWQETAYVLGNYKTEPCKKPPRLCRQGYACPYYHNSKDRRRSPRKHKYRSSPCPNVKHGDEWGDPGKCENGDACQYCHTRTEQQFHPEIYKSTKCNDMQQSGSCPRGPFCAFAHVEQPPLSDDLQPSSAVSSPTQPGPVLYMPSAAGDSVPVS
With `GCUGAUGCAAGUAAGGGUGAUGACCUGCUUCCUGCUGGCACUGAGGAUUAUAUCCAUAUAAGAAUUCAACAGAGAAACGGCAGGAAGACCCUUACCACUGUCCAAGGGAUCGCUGAUGAU` the bound/input enrichment was 0.0958 ratio.
`CAAUCUAGAAAUUUUGAAUACCAUGAGGAAAGACAUUUCCAUGGGCACUAUGACCCUGAAUAUAGACAUGAUCAACAAAGACCCUUUACUUGGAGAAUGGAUGAUGAAAAACAUGGACAA` has a bound/input enrichment of 4.8 ratio.
`CCCCCAAAUCAUUGGCUUUCACAUCCAGUAUUUUUGGCUCAUGGCAACAGGUUUUUAAACUUUAUUUCAUUAAAUAUUUUCCAUUCUUGCAUUCAGAGCAACAAACAGCUAUUUUUGAGG` gave a bound/input enrichment of 0.799 ratio.
`AAUGAUGAUGCAAUGUUGAUCGAGAAGUUCGUGGACACUCCAAGGCAUGUAGAAGUCCAGGUGUUUGGUGAUCACCAUGGCAACGCAGUGUACUUGUUUGAAAGAGACUGUAGUGUGCAG` gave a bound/input enrichment of 0.322 ratio.
The bound/input enrichment of `AAUAGUAGUACAGCUAUUGGAAUCAGAUGCAAAGAUGGUGUUGUCUUUGGGGUAGAAAAAUUAGUCCUUUCUAAACUUUAUGAAGAAGGUUCCAACAAAAGACUUUUUAAUGUUGAUCGG` is reported as 0.533 ratio.
The bound/input enrichment of `GACUUGGUACACUUUGAUUUUAUGGACCCACCAGCUCCUGAAACUCUGAUGAGAGCCCUAGAACUUUUGAAUUAUUUGGCUGCUUUAAAUGAUGAUGGAGAUCUGACUGAAUUGGGAUCC` is reported as 21.2 ratio.
The bound/input enrichment of `GAACCUGAGCCAGCGGAAGAAUACACAGAGCAAAGUGAGGUUGAAUCAACAGAGUAUGUCAAUAGGCAGUUCAUGGCAGAAACACAGUUCAGCAGUGGUGAGAAGGAGCAAGUGGAUGAG` is reported as 0.442 ratio.
With `CAGACGAUUGCACGGAAUGCACUUAAGCAGGAAACGGAGGUGGAGCUGUACAACGAAUUUCCUGAACCUAUCAAACUGGACAAGAAUGACCGGGCCAAGGCCUCGGCAGAAAGCUGCAGU` the bound/input enrichment was 0.0744 ratio.

Sample 3
Target: CCNB1, cyclin fold, Cln2 fusion (human)
Method: yeast growth competition, sequencing
Medium: yeast
Setting: weak parent motif
Relative to: not given
Reading: higher = stronger binding
Parent: RRM2 docking peptide (human); SKTARRIFQEPTE
`SKTARRIFQEPTA [E13A]`: “normalised enrichment score” 0.0911.
`SKTAARIFQEPTE [R5A]` — result for “normalised enrichment score”: 0.342.
Under “normalised enrichment score”, `SKTARRIFQEATE [P11A]` is recorded as -0.00913.
Under “normalised enrichment score”, `SKTARAIFQEPTE [R6A]` is recorded as 0.18.
For `AKTARRIFQEPTE [S1A]`, “normalised enrichment score” read 0.134.
Under “normalised enrichment score”, `SKTARRIFQEPAE [T12A]` is recorded as 0.266.

Mixed results
`O=C(Nc1cccc(Nc2cc(Nc3cccc(C(F)(F)F)c3)ncn2)c1)C1CC1` gave a remaining activity of 104% (Ephrin type-A receptor 2 (EPHA2, Homo sapiens, UniProt P29317); enzyme activity, inhibitor; 0.5 µM; relative to: control).

Excerpt of the above (sample 3):
Under “normalised enrichment score”, `SKTARRIFQEATE [P11A]` is recorded as -0.00913.
`SKTARRIFQEPTA [E13A]`: “normalised enrichment score” 0.0911.
Under “normalised enrichment score”, `SKTARRIFQEPAE [T12A]` is recorded as 0.266.
For `AKTARRIFQEPTE [S1A]`, “normalised enrichment score” read 0.134.
